Results from different studies.
Tested at: 1 µM
Chain of UniProt P29320 (whole entry, looked up): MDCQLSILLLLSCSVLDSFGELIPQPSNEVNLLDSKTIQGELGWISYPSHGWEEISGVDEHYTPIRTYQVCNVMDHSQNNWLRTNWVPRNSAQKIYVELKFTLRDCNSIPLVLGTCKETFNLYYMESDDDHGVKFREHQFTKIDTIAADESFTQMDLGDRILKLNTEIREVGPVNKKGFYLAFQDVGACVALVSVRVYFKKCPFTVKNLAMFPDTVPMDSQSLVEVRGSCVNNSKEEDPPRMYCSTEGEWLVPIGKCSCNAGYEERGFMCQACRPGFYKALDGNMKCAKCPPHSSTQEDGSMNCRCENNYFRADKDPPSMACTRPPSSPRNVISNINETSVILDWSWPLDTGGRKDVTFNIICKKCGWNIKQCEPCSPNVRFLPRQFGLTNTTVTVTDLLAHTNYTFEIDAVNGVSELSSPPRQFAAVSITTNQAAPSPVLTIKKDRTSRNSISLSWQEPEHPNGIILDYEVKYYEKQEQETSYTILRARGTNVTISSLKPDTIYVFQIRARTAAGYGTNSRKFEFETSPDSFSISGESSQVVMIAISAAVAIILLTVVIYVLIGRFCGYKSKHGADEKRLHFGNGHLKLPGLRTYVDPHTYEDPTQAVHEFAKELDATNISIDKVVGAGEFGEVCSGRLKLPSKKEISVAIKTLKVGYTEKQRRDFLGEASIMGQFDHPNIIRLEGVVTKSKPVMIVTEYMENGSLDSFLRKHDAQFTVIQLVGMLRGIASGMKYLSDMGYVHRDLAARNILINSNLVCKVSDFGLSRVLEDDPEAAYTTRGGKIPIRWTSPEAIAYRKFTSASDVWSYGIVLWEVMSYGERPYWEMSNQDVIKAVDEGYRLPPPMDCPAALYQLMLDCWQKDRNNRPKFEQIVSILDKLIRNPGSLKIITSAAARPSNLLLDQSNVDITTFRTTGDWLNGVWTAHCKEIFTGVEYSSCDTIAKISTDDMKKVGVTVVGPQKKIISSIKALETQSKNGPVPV
Chain of UniProt O14757 (whole entry, looked up): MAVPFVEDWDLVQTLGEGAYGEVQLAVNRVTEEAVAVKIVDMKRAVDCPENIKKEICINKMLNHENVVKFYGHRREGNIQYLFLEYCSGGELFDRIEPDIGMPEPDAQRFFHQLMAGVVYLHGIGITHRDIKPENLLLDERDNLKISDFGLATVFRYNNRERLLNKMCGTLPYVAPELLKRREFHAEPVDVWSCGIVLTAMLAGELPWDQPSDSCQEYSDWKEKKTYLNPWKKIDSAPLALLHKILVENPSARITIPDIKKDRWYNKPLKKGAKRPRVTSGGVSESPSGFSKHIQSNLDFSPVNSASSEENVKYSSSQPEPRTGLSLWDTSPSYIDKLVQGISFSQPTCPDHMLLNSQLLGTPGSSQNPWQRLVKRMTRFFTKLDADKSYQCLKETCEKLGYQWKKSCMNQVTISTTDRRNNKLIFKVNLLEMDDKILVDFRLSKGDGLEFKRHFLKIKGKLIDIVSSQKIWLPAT
Chain of UniProt P54762 (whole entry, looked up): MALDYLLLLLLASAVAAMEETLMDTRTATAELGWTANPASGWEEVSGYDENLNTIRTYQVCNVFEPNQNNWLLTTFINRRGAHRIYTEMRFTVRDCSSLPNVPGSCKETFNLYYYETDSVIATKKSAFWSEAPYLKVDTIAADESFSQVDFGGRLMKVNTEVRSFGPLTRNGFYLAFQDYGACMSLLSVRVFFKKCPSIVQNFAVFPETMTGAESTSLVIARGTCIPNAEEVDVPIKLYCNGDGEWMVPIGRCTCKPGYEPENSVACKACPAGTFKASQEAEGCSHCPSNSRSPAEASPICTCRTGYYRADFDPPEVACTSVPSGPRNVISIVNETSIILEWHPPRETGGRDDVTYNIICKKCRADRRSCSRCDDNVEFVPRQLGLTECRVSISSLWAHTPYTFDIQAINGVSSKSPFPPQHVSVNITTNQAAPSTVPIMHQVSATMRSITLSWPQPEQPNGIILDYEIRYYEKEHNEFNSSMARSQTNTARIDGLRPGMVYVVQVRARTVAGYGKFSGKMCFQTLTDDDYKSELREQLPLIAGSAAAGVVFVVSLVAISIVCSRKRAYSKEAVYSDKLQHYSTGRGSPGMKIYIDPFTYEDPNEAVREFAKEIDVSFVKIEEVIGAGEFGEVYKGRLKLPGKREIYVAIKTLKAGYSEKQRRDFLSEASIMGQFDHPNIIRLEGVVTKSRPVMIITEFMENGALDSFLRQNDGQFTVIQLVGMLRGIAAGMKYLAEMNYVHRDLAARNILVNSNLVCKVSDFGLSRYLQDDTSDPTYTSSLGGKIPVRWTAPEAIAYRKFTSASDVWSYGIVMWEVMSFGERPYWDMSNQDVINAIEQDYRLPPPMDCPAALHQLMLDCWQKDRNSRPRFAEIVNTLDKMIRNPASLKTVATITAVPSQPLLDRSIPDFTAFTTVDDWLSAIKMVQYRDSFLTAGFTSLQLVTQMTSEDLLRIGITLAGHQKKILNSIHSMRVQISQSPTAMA
Chain of UniProt P50613 (whole entry, looked up): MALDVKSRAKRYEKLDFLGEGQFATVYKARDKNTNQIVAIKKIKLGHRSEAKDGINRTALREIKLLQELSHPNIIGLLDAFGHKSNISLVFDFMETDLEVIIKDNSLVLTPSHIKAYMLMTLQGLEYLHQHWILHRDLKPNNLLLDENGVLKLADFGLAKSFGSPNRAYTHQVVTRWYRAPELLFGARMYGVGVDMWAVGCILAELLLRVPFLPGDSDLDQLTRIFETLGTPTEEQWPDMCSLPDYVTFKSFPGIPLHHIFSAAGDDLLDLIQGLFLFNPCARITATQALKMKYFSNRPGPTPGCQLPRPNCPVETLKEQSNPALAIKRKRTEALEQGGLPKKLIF

C=CC(=O)N1CCC(COCC(=O)N2CCN(c3nc(-c4cnc(N)nc4C(F)F)nc(N4CCOC[C@@H]4C)n3)CC2)CC1  remaining binding (Ephrin type-A receptor 3 (EPHA3, Homo sapiens, UniProt P29320); binding, competition with immobilised ligand): 94%
Cc1cc([C@@H](C)Nc2ccccc2C(=O)O)c2nc(N3CCC(F)(F)CC3)c(C#N)c(=O)n2c1  remaining binding (Cyclin-dependent kinase 7 (CDK7, Homo sapiens, UniProt P50613); binding, competition with immobilised ligand): 82%
CNc1ncc2c(/C=C/C(=O)N3CCC(OC)CC3)nn(Cc3cccc(C(F)(F)F)c3)c2n1  remaining activity (Serine/threonine-protein kinase Chk1 (CHEK1, Homo sapiens, UniProt O14757); enzyme activity, inhibitor, radiometric): 91%
COc1cc(-c2cncc3c2CN(C)Cc2cc(N4CCNCC4)ccc2-3)cc(OC)c1OC  remaining activity (Ephrin type-B receptor 1 (EPHB1, Homo sapiens, UniProt P54762); enzyme activity, inhibitor): 101%

For quick reference, copied from above:
Cc1cc([C@@H](C)Nc2ccccc2C(=O)O)c2nc(N3CCC(F)(F)CC3)c(C#N)c(=O)n2c1  remaining binding (Cyclin-dependent kinase 7 (CDK7, Homo sapiens, UniProt P50613); binding, competition with immobilised ligand): 82%
